Experimental data gathered from unrelated publications.
Lines come from different studies, so protocols differ.
Target: Mu-type opioid receptor (Oprm1, Rattus norvegicus, UniProt P33535)
Chain of UniProt P33535 (whole entry, looked up): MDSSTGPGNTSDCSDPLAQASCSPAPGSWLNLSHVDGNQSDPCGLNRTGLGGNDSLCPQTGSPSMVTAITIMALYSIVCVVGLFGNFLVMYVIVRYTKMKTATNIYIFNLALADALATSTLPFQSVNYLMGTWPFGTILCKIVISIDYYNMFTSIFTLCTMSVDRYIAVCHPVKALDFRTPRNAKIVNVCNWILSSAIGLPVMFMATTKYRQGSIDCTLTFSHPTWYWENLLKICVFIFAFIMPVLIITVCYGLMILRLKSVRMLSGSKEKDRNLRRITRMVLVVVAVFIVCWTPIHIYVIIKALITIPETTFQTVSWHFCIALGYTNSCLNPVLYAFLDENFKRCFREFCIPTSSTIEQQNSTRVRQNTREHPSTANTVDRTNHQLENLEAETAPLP

`CC(=O)N(C)[C@@H](Cc1ccccc1)C(=O)N[C@@H](Cc1ccccc1)C(=O)N[C@@H](Cc1c[nH]c2ccccc12)C(=O)N[C@@H](CCCNC(=N)N)C(=O)N[C@@H](CC(C)C)C(=O)N[C@@H](CCCNC(=N)N)C(=O)N[C@@H](CCCNC(=N)N)C(=O)N[C@H](C)C(=O)N[C@@H](CCCNC(=N)N)C(=O)N1CCC[C@H]1C(=O)N[C@@H](CCCCN)C(N)=O` gave a Ki of 2990 nM (ligand displacement, radioligand).
With `CC(C)C[C@H](NC(=O)[C@H](Cc1ccc2ccccc2c1)NC(=O)CNC(=O)[C@H](NC(=O)[C@@H](N)Cc1ccc(O)cc1)[C@H](C)O)C(=O)N[C@@H](CO)C(N)=O` the Ki was 2.7 nM (ligand displacement, radioligand; pH 7.4, cell membranes).
With `COC(=O)N(C)[C@@H](Cc1ccccc1)C(=O)N[C@@H](Cc1ccccc1)C(=O)N[C@@H](Cc1c[nH]c2ccccc12)C(=O)N[C@@H](CCCNC(=N)N)C(=O)N[C@@H](CC(C)C)C(=O)N[C@@H](CCCNC(=N)N)C(=O)N[C@@H](CCCNC(=N)N)C(=O)N[C@H](C)C(=O)N[C@@H](CCCNC(=N)N)C(=O)N1CCC[C@H]1C(=O)N[C@@H](CCCCN)C(N)=O` the Ki was 1280 nM (ligand displacement, radioligand).
`CCNC(=O)c1cc(Cc2ccccc2)cc2c1NCCC2NC(=O)C(N)Cc1c(C)cc(O)cc1C` (stereo not drawn) has a Ki of 0.2 nM (ligand displacement, radioligand; cell membranes).
For `CCC(=O)N(CC1CCCCN1C(=O)[C@H](Cc1ccccc1)NC(=O)CNC(=O)[C@@H](C)NC(=O)[C@@H](N)Cc1c(C)cc(O)cc1C)c1ccccc1` (stereo partly drawn), the Ki was 0.8 nM (cell-free assay).
The Ki of `Cc1cc(O)cc(C)c1CC(N)C(=O)NC1CCNc2c1cc(Cc1ccccc1)cc2C(C)(C)C` (stereo not drawn) is reported as 0.47 nM (ligand displacement, radioligand; cell membranes).
With `Cc1cc(O)cc(C)c1CC(N)C(=O)NC1CCNc2ccc(CN3CCOCC3)cc21` (stereo not drawn) the Ki was 0.6 nM (ligand displacement, radioligand; cell membranes).
With `Cc1cc(O)cc(C)c1CC(N)C(=O)NC1CCNc2c(CCc3ccccc3)cc(Cc3ccccc3)cc21` (stereo not drawn) the Ki was 0.37 nM (ligand displacement, radioligand; cell membranes).
For `N=C(N)NCCC[C@@H]1NC(=O)[C@H](Cc2ccc(O)cc2)NC(=O)CNC(=O)[C@H](Cc2c[nH]c3ccccc23)NC(=O)[C@H](CNC(=O)c2ccccc2N)NC1=O`, the Ki was 31000 nM (binding).
`CCCC[C@@H]1NC(=O)[C@H](Cc2ccccc2)NC(=O)CNC(=O)[C@H](NC(=O)[C@@H](N)Cc2ccc(O)cc2)C(C)(C)SSC(C)(C)[C@@H](C(=O)N[C@@H](Cc2c[nH]c3ccccc23)C(=O)NCc2cc(C(F)(F)F)cc(C(F)(F)F)c2)NC(=O)[C@@H]2CCCN2C1=O` has a Ki of 2000 nM (binding).
With `CC(C)C[C@H](NC(=O)C1(NC(=O)CNC(=O)[C@H](NC(=O)[C@@H](N)Cc2ccc(O)cc2)[C@H](C)O)Cc2ccccc2C1)C(=O)N[C@@H](CO)C(N)=O` the Ki was greater than 1000 nM (ligand displacement, radioligand; pH 7.4, cell membranes).
The Ki of `CC(=O)N1CCC(NC(=O)C(N)Cc2c(C)cc(O)cc2C)c2cc(CN3CCC4CCCCC4C3)ccc21` (stereo not drawn) is reported as 0.8 nM (ligand displacement, radioligand; cell membranes).
For `C[C@@H](NC(=O)[C@@H](N)Cc1ccc(O)cc1)C(=O)NCC(=O)N[C@@H](Cc1ccc(F)cc1)C(=O)N1CCN(C(=O)[C@H](Cc2ccc(F)cc2)NC(=O)CNC(=O)[C@@H](C)NC(=O)[C@@H](N)Cc2ccc(O)cc2)CC1`, the Ki was 0.11 nM (ligand displacement, radioligand; cell membranes).
The Ki of `Cc1cc(O)cc(C)c1CC(N)C(=O)NC1CCNc2c(C(=O)O)cc(Cc3ccccc3)cc21` (stereo not drawn) is reported as 0.47 nM (ligand displacement, radioligand; cell membranes).
`Cc1cc(O)cc(C)c1CC(N)C(=O)NC1CCNc2ccc(Cn3cncn3)cc21` (stereo not drawn) has a Ki of 3.1 nM (ligand displacement, radioligand; cell membranes).
With `CC(C)C[C@H](NC(=O)[C@H](CCCNC(=N)N)NC(=O)[C@H](Cc1ccccc1)NC(=O)[C@H](Cc1ccccc1)NC(=O)[C@H](Cc1ccccc1)N(C)C(=O)COc1ccccc1)C(=O)N[C@@H](CCCNC(=N)N)C(=O)N[C@@H](CCCNC(=N)N)C(=O)N[C@H](C)C(=O)N[C@@H](CCCNC(=N)N)C(=O)N1CCC[C@H]1C(=O)N[C@@H](CCCCN)C(N)=O` the Ki was 1450 nM (ligand displacement, radioligand).
For `Cc1cc(O)cc(C)c1CC(N)C(=O)NC1CCNc2c(Cc3ccccc3)cccc21` (stereo not drawn), the Ki was 48 nM (ligand displacement, radioligand; cell membranes).
`N=C(N)NCCC[C@@H]1NC(=O)[C@@H](NC(=O)[C@H](Cc2ccccc2)NC(=O)CNC(=O)CNC(=O)[C@H](Cc2ccc(O)cc2)NCc2ccccc2)CC(=O)NC[C@@H](C(=O)N[C@@H](CCCNC(=N)N)C(=O)N2CCC[C@H]2C(=O)N[C@@H](CCCCN)C(N)=O)NC(=O)[C@H](CCCNC(=N)N)NC1=O` has a Ki of 2610 nM (ligand displacement, radioligand; cell membranes).
With `CC(C)C[C@H](NC(=O)[C@H](CCCNC(=N)N)NC(=O)[C@H](Cc1c[nH]c2ccccc12)NC(=O)[C@H](Cc1ccccc1)NC(=O)[C@H](Cc1ccccc1)N(C)C(=O)COc1ccccc1)C(=O)N[C@@H](CCCNC(=N)N)C(=O)N[C@@H](CCCNC(=N)N)C(=O)N[C@H](C)C(=O)N[C@@H](CCCNC(=N)N)C(=O)N1CCC[C@H]1C(=O)N[C@@H](CCCCN)C(N)=O` the Ki was 1250 nM (ligand displacement, radioligand).
With `Cc1cc(O)cc(C)c1CC(N)C(=O)NC1CCNc2c(Br)cc(Cc3ccccc3)cc21` (stereo not drawn) the Ki was 0.23 nM (ligand displacement, radioligand; cell membranes).
For `Cc1cc(O)cc(C)c1CC(N)C(=O)NC1CCNc2ccc(CN3CCC4CCCCC4C3)cc21` (stereo not drawn), the Ki was 0.15 nM (ligand displacement, radioligand; cell membranes).
For `CC(C)C[C@H](NC(=O)[C@H](Cc1cccc2ccccc12)NC(=O)CNC(=O)[C@H](NC(=O)[C@@H](N)Cc1ccc(O)cc1)[C@H](C)O)C(=O)N[C@@H](CO)C(N)=O`, the Ki was 0.8 nM (ligand displacement, radioligand; pH 7.4, cell membranes).
`CC(C)C[C@H](NC(=O)[C@H](CCCNC(=N)N)NC(=O)[C@H](Cc1c[nH]c2ccccc12)NC(=O)[C@H](Cc1ccccc1)NC(=O)[C@H](Cc1ccccc1)N(C)C(=O)CN)C(=O)N[C@@H](CCCNC(=N)N)C(=O)N[C@@H](CCCNC(=N)N)C(=O)N[C@H](C)C(=O)N[C@@H](CCCNC(=N)N)C(=O)N1CCC[C@H]1C(=O)N[C@@H](CCCCN)C(N)=O` gave a Ki of 502 nM (ligand displacement, radioligand).
With `Cc1cc(O)cc(C)c1CC(N)C(=O)NC1CCNc2c(C)cc(Cc3ccccc3)cc21` (stereo not drawn) the Ki was 0.24 nM (ligand displacement, radioligand; cell membranes).
The Ki of `Cc1cc(O)cc(C)c1CC(N)C(=O)NC1CCNc2ccc(CN3CCCCCC3)cc21` (stereo not drawn) is reported as 0.15 nM (ligand displacement, radioligand; cell membranes).
The Ki of `CC(=O)NCC(=O)N(C)[C@@H](Cc1ccccc1)C(=O)N[C@@H](Cc1ccccc1)C(=O)N[C@@H](Cc1ccccc1)C(=O)N[C@@H](CCCNC(=N)N)C(=O)N[C@@H](CC(C)C)C(=O)N[C@@H](CCCNC(=N)N)C(=O)N[C@@H](CCCNC(=N)N)C(=O)N[C@H](C)C(=O)N[C@@H](CCCNC(=N)N)C(=O)N1CCC[C@H]1C(=O)N[C@@H](CCCCN)C(N)=O` is reported as greater than 10000 nM (ligand displacement, radioligand).
With `CCC(=O)N(CC1CCCCN1C(=O)[C@H](Cc1ccccc1)NC(=O)CNC(=O)[C@@H](C)NC(=O)[C@@H](N)Cc1ccc(O)cc1)c1ccccc1` (stereo partly drawn) the Ki was 2 nM (cell-free assay).
With `COC(=O)N(C)[C@@H](Cc1ccccc1)C(=O)N[C@@H](Cc1ccccc1)C(=O)N[C@@H](Cc1ccc(O)cc1)C(=O)N[C@@H](CCCNC(=N)N)C(=O)N[C@@H](CC(C)C)C(=O)N[C@@H](CCCNC(=N)N)C(=O)N[C@@H](CCCNC(=N)N)C(=O)N[C@H](C)C(=O)N[C@@H](CCCNC(=N)N)C(=O)N1CCC[C@H]1C(=O)N[C@@H](CCCCN)C(N)=O` the Ki was 1300 nM (ligand displacement, radioligand).
For `Cc1cc(O)cc(C)c1CC(N)C(=O)NC1CCNc2c(C(=O)Nc3ccccc3)cc(Cc3ccccc3)cc21` (stereo not drawn), the Ki was 0.32 nM (ligand displacement, radioligand; cell membranes).
`Cc1cc(O)cc(C)c1CC(N)C(=O)NC1CCNc2ccc(CN3CCc4ccccc4C3)cc21` (stereo not drawn) gave a Ki of 0.03 nM (ligand displacement, radioligand; cell membranes).
